{"data": "Published values from different studies", "note": "Protocols differ between the studies behind these lines. ± gives the spread as reported."}
{"SMILES": "CC1=C2[O][Ru-]([Cl])[O+]=C2C=CN1CCCCCCCCCCCCN1C=CC2=[O+][Ru-]([Cl])[O]C2=C1C.Cc1ccc(C(C)C)cc1.Cc1ccc(C(C)C)cc1", "cell line": "KYSE70-oxo oxoplatin-resistant", "how to read": "relative to: KYSE-70 parent", "measurement": "sensitivity relative to parent", "result": "> 10 fold"}
{"SMILES": "COc1cc(CNC(=O)C[C@H](C)CCC=C(C)C)ccc1OCc1cn(-c2cccc(Cl)c2)nn1", "cell line": "SF-268 CNS cancer cells", "assay": "SRB", "conditions": "10 µM, 48 h", "measurement": "growth percent", "result": "86%"}
{"SMILES": "O=C(/C=C/c1cccc(S(=O)(=O)Nc2ccc(F)cc2)c1)NO", "cell line": "MOPC-315", "assay": "cell growth", "conditions": "24 h", "how to read": "relative to: belinostat", "measurement": "relative potency", "result": 1.02}
{"SMILES": "C=C1C(=O)O[C@H]2[C@H]1CCC(COC(=O)c1cn(C)c3ccccc13)=C1CC[C@@](C)(O)[C@@H]12", "cell line": "M9-ENL1", "assay": "cell growth or viability, flow cytometry", "conditions": "20 µM, 24 h", "measurement": "viability", "result": "4%"}
{"SMILES": "CCC(=C(c1ccc(Cl)cc1)c1ccc(OCCN2CCCC2)cc1)c1ccc(OC)cc1", "cell line": "NCI-60 tumour cell lines", "conditions": "10 µM, mean over cell lines", "measurement": "growth inhibition", "result": "33.9%"}
{"SMILES": "COc1cc(CNC(=O)C[C@H](C)CCC=C(C)C)ccc1OCc1cn(-c2ccccc2F)nn1", "cell line": "SW-620", "assay": "SRB", "conditions": "10 µM, 48 h", "measurement": "growth percent", "result": "92.7%"}
{"SMILES": "O=C(N1CCCC1)n1cc(-c2ccc(-c3ccccc3)cc2)nn1", "cell line": "mouse T-cells", "assay": "N-terminal labeled proteins, N-terminal enrichment proteomics, refers to: NDUFV2", "conditions": "1 nM, 6 h", "how to read": "relative to: DMSO", "measurement": "SILAC ratio", "result": "1.12 ± 0.19"}
{"SMILES": "COc1cc(CNC(=O)C[C@H](C)CCC=C(C)C)ccc1OCc1cn(-c2cccc(C(F)(F)F)c2)nn1", "cell line": "OVCAR-8 ovarian cancer cells", "assay": "SRB", "conditions": "10 µM, 48 h", "measurement": "growth percent", "result": "28.1%"}
{"SMILES": "CN1CCC(N[C@@H]2CCc3[nH]c4c(C(N)=O)ccc(-c5ccccc5Cl)c4c3C2)CC1", "cell line": "RKO", "assay": "western blot, refers to: p21", "conditions": "concentration not given", "how to read": "relative to: untreated", "measurement": "protein level", "result": "increased"}
{"SMILES": "CCN(CC)CC(=O)Nc1cccc(-n2cc(-c3ccc4ccc(-c5cn(-c6cccc(NC(=O)CN(CC)CC)c6)nn5)cc4c3)nn2)c1", "cell line": "RCC4 with VHL", "conditions": "5 and 10 × IC50, 4 h, normoxia and hypoxia", "measurement": "colony formation", "result": "decreased"}
{"SMILES": "CC(=O)OC[C@H]1O[C@@H](Sc2sc(C(=O)c3ccc(Br)cc3)c(N)c2-c2nc3ccccc3s2)[C@H](OC(C)=O)[C@@H](OC(C)=O)[C@@H]1OC(C)=O", "cell line": "MDA-MB-231 breast cancer", "assay": "SRB", "conditions": "10 µM, 48 h", "measurement": "growth percent", "result": "84.1%"}
{"SMILES": "CCC12CCc3c(c4ccccc4n3C)CCN(CC3OC31)C2 (stereo not shown)", "cell line": "BV-2", "assay": "western blot", "conditions": "25 µM, together with: LPS", "how to read": "relative to: LPS alone", "measurement": "Nrf2 protein level", "result": "4.45 fold"}
{"SMILES": "Cc1cccc(O[C@H]2CCC[C@@H](C(C)CNCc3ccncc3)C2)c1 (relative stereo)", "cell line": "MC65 Tet-Off cells", "assay": "cell viability", "conditions": "concentration not given, together with: rotenone 32 nM pretreatment 30 min", "measurement": "protection against Aβ toxicity", "result": "decreased"}
{"SMILES": "COc1cc(CNC(=O)C[C@H](C)CCC=C(C)C)ccc1OCc1cn(-c2ccc(Cl)c(Cl)c2)nn1", "cell line": "MDA-MB-468 breast cancer cells", "assay": "SRB", "conditions": "10 µM, 48 h", "measurement": "growth percent", "result": "55%"}
{"SMILES": "Cc1cc(-c2ccccc2)c2ccc3c(-c4ccccc4)cc(C)nc3c2n1.[Cl-].[Cl-].[Ru+2].c1ccc(-c2ccccn2)nc1.c1ccc(-c2ccccn2)nc1", "cell line": "B16-F10", "assay": "annexin V/PI", "conditions": "10 µM, 24 h, dark", "measurement": "early apoptotic cells", "result": "~26%"}
{"SMILES": "COc1cc(CNC(=O)C[C@H](C)CCC=C(C)C)ccc1OCc1cn(-c2ccccc2[N+](=O)[O-])nn1", "cell line": "SF-295 CNS cancer cells", "assay": "SRB", "conditions": "10 µM, 48 h", "measurement": "growth percent", "result": "60.5%"}
{"SMILES": "CCCCCCCCCCCCCCOc1c(O)cc(C(=O)O[C@@H]2Cc3c(O)cc(O)cc3O[C@@H]2c2cc(O)c(O)c(O)c2)cc1O", "cell line": "U-87 MG", "assay": "Western blot, refers to: phospho-mTOR", "conditions": "50 µM, 24 h", "how to read": "relative to: untreated", "measurement": "phosphorylation level", "result": "decreased"}
{"SMILES": "COc1cc(CNC(=O)C[C@H](C)CCC=C(C)C)ccc1OCc1cn(-c2ccccc2)nn1", "cell line": "OVCAR-8 ovarian cancer cells", "assay": "SRB", "conditions": "10 µM, 48 h", "measurement": "growth percent", "result": "108%"}
{"SMILES": "CC1=CC(OC(=O)c2ccccc2)C2(COC(=O)c3ccccc3)CCC(=C(C)C)C2C(O)CC2(C)OC2CC1 (stereo not shown)", "cell line": "HepG2, palmitic acid-induced insulin resistance", "conditions": "10.0 µM, 24 h", "measurement": "glucose consumption", "result": "4.71 ± 0.17 mM"}
{"note": "A few entries again:"}
{"SMILES": "C=C1C(=O)O[C@H]2[C@H]1CCC(COC(=O)c1cn(C)c3ccccc13)=C1CC[C@@](C)(O)[C@@H]12", "cell line": "M9-ENL1", "assay": "cell growth or viability, flow cytometry", "conditions": "20 µM, 24 h", "measurement": "viability", "result": "4%"}
